Results of several laboratories.
Each numbered part is a random draw from the data of one study; scales do not carry over between parts.

Set 1 — technique: RNA Bind-n-Seq; molecule type: RNA; sample: in vitro; tested at: not given; setting: RNA with constant flanks, ends assumed; reference: input RNA pool; direction: higher = stronger binding
Target: RING finger protein unkempt homolog, zinc fingers 1-6, GST-SBP tag (UNK, Homo sapiens, UniProt Q9C0B0, residues 30-357)
Shared flanks, not repeated: GGGAGUUCUACAGUCCGACGAUC … CAACAGAGGAUUGAGCAUCA
Construct (chain): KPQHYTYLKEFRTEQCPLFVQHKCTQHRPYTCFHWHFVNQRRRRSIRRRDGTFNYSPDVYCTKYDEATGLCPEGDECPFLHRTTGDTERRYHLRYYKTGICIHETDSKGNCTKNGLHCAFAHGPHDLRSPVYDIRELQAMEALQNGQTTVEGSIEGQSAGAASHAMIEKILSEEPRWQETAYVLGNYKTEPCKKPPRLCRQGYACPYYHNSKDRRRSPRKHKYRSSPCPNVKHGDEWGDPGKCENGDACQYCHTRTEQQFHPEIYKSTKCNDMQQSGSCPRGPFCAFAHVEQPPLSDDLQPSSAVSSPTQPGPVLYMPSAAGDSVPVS
With `AGUCUUCAGGAUACUGUAGCUUCCUCUGUAGAGAACUUCGUUUUAAUAGACACUGUACAACCGUGGUGUUUUACUUCACUGAAUCACACCUUUGUUCUGAAAGUGUGAUACAGAGUAUAA` the bound/input enrichment was 1.91 ratio.
With `CGUGGAGUUGCCGUUCUGUGCACUGAGUAAAGCUAGACUUUUCUCCAGUCCUCUUUCUGGAACCGGAAACUCCCAAUAUUUAACCUUCAUUCAUCCUUAACGGUGUGGAAGGGUUGAUGG` the bound/input enrichment was 0.086 ratio.
The bound/input enrichment of `CCUGGUGCAGGAUUGCUUCCAAUACCGACCCCAAAUCCUUUGACUACUCUUGGUGUUUCACUCCGCAGUUUGGGAGCUAUACCAGCAGCAGCACUAGACCCCAACAUUGCAACACUUGGA` is reported as 0.2 ratio.
For `GGAUAUUUCACAAAACCUCCGAUUGCAGCUCAUGCUUCAAGAUCUGCAGAAUCUAAGACUACCGAAUUUGGGAAAACUAAUUUUGUUCAGCCCAUGCCGGGUGAAGGAUUAAGGCCAUCU`, the bound/input enrichment was 0.107 ratio.
`AAUGAUGAAGUAACAAUAAAGUAUAAAGAUGAAGAUGGAGAUCUUAUAACAAUUUUUGACCGUUCUGACCUUUCCUUUGCAAUUCAGUGCAGUAGGAUACUGAAACUGACAUUAUUUGUU` has a bound/input enrichment of 0.252 ratio.
`UAUCCAAAUCUAAACAUGAUUGAGACAUUCAUAUGUCAAGUGUGUGAGGAAACCCUUGCACACCGUGUGGAUUCCCUUGAGCAGCUGACUGGAAUAAGGAUGCUUAGACACCUCACUAUG` gave a bound/input enrichment of 0.316 ratio.
The bound/input enrichment of `AGGACAGUGCAGAAUUAAACCGUGUUGAAGACCAGUGGAAAUUGUAUAAUUUAACUUGGAUUCCGGCAGGAAGUGAAAUAUGGGAGGAGUAAAGAAAACUGAAGAAUUUAAAGUUUUCCU` is reported as 0.367 ratio.
For `ACUAACAGGCCAUUUAUUUCCCAGAAAAUCCACUUUCCUGACUUUUCUACCAGAGACAUACACCGGAAUUAUGUUGAUUGUGUGCGAUGGUUAGGCGAUUUGAUACUUUCCAAGUCUUGU`, the bound/input enrichment was 0.249 ratio.

Set 2 — technique: competition protein-binding microarray; molecule type: double-stranded DNA, one strand shown; sample: in vitro; tested at: 2 µM; with: Cbf1 competitor, 0.05 µM; direction: higher = stronger binding; shared flanks, not repeated: … GTCTTGATTCGCTTGACGCTGCTG
Target: Phosphate system positive regulatory protein PHO4, full length, GST-tagged (PHO4, Saccharomyces cerevisiae, UniProt P07270, residues 1-312)
Setting: whole 60-bp probe, lowest competitor level
Residues (chain): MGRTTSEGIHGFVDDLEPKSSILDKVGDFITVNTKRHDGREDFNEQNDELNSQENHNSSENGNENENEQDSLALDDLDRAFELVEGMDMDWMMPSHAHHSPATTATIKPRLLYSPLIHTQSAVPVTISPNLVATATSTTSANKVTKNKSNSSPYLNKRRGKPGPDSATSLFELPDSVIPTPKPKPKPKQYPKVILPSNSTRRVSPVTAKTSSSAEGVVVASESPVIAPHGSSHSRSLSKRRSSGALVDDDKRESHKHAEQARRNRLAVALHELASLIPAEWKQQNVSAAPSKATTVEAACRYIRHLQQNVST
`TGCGCAACAACTTGTGACGTGGGTGTATGTCTAGAA` has a fluorescence intensity of 6360 a.u.
For `GAACTTGTGCTGTGCCAGATTGAATTTTGAAAGTAC`, the fluorescence intensity was 5370 a.u.
`CTTCTGTAAATTTGTCACTCCACTTGACGCGCCCCG` gave a fluorescence intensity of 4200 a.u.
`AAAGCGGTAATTTGTCACTAAACTTCACATATCTAT` gave a fluorescence intensity of 3250 a.u.
`GCACAATTTTATGACCGCGTGTTTTCGAATTTTGAC` gave a fluorescence intensity of 11100 a.u.
`CGTCCTAGTGATTTTCACGTGGCATCCATGAGGAAG` has a fluorescence intensity of 13300 a.u.
`TGACAGAAAACTTAGATCGTGACGGCAAATTAAACG` has a fluorescence intensity of 7150 a.u.
With `AAATTACTAAGTTGTACAGTGGGTGACGCCGTATGA` the fluorescence intensity was 4160 a.u.
The fluorescence intensity of `TGCGCAACAACTTGTCGAGTGGGTGTATGTCTAGAA` is reported as 4400 a.u.
The fluorescence intensity of `TACTTAATAATCGACCACGTTTCAAATTCAATAATG` is reported as 13200 a.u.
`TTACCCCAACATTACCTCGTGGTGAGTGGAGAATCA` gave a fluorescence intensity of 12000 a.u.
The fluorescence intensity of `AAAGCGGTAATTTGCTTTGTGGGTGCAGATATCTAT` is reported as 3830 a.u.

Set 3 — technique: RNA Bind-n-Seq; molecule type: RNA; sample: in vitro; tested at: 365 nM; reference: no-protein control; direction: higher = stronger binding
Target: RNA binding protein fox-1 homolog 2, RRM domain, GST-SBP tag (RBFOX2, Homo sapiens, UniProt O43251-10, residues 100-194)
Setting: natural RNA segment, single round, ends assumed
Shared flanks, not repeated: GGGAGUUCUACAGUCCGACGAUC … UGGAAUUCUCGGGUGCCAA
Construct (chain): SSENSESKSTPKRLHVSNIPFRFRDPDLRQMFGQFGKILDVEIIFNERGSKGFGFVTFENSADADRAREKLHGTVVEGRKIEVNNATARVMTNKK
Under “RBNS enrichment (R)”, `UUUUCUCCAGAGAGUCCUUGGGGUGAGCCUUGGGGCACAGGUACACUCAGAGGUCUGAGAGCCUACCAUGUGGAACAGUGUAAGCAGAAAGGCCAUCUUCCCACUGUCCU` is recorded as 0.403.
For `CCCUUUAAAAACUAACCCACUGAAUAUUCCGUGUGAUCUAGAACAGUGUGGCAGCUUUCACAGCACAGGACCGUUCAUCGGGGGCCUAAACGUUUCCCUCAGCUCUGUCA`, “RBNS enrichment (R)” read 0.295.
Under “RBNS enrichment (R)”, `AAAGCAAAUAUAUUUAGGCCAGGGUCUCACUGAGGGGGAGCUGUCUUGUCAUCUUUUAGAGUAAACUAUUCUAUAAACAUAUGCAAACAGCCCUAAAUAAAUCUAAAGUC` is recorded as 0.485.
For `UAUAAAUCCUCAUAGCGGAACAUUUCUCAGGGCAAAGGAACCUGGCUCAUUUGAAGAUUAAUGUUCCAUGCCUUUGUGGUCAAAGGGUCAGCACUUAACACAGGAAAAAA`, “RBNS enrichment (R)” read 1.53.
`CAGUGACGAAUACGUGUCAUGAUUUCAUCUCACCCAGUCACCGAGUGGAAAGCAAGCCGAGGUGUAAACUGCUGUACAUAGCUUGAAGAAAUACAAAUGAAGUCACGUUU` — result for “RBNS enrichment (R)”: 0.365.
`CUUCUUCCUAACAGCAUUUUAUGCCUUUUAUUCCACAUUAAAUGGGAAUUGUGCCUACUUAGGAGUGCCCCUCCAAUUAAUUACAUGUGUCCAAGAAUAAUCCAAGCUAG` — result for “RBNS enrichment (R)”: 0.904.
For `UGGAAAUGCAAUAUCUUGGGGAGACGUCAACUUCUGAAGUGACUUUGAAGGCAGGGCAGCUACCCAGGCAAAUGGCGUGGAAGGAAGAGCUGAGAGUGGGCCUGGGAAAG`, “RBNS enrichment (R)” read 0.868.
Under “RBNS enrichment (R)”, `UCUACCAAAAACAGGGCUAAGGGCUGGAGAUGGAUCCCCGUUCCUUGUCCAGCCUCCUGCUACCGCUGCCCACCUCCUGCCUCCAUUGCCCAGGCCACACUAGUUGGCCC` is recorded as 0.434.

Set 4 — technique: protein binding microarray; molecule type: double-stranded DNA, one strand shown; sample: in vitro; tested at: not given; reference: not given; direction: higher = stronger binding
Target: Histone acetyltransferase KAT6A, both winged helices, GST fusion (KAT6A, Homo sapiens, UniProt Q92794, residues 1-181)
Setting: 8-mer, flanks averaged, mean of 2 arrays, mostly near background
Target sequence (chain): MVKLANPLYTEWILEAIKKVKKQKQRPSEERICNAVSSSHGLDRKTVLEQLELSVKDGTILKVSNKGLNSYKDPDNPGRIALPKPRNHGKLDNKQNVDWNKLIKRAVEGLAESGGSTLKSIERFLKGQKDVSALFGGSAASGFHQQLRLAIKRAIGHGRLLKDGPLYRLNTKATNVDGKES
`GGCAGGTA` has an E-score of -0.0106.
The E-score of `CGCTTGCC` is reported as 0.224.
`CGGTTGGC` gave an E-score of 0.123.
`GCCAACGC` gave an E-score of 0.204.
For `CGCACTAC`, the E-score was 0.167.
The E-score of `ACTGTGCT` is reported as -0.0427.
The E-score of `CCTTCACA` is reported as -0.184.
For `ACTAAGAA`, the E-score was 0.0477.
`AACAGGTA` gave an E-score of -0.125.
`ATTGGAAG` gave an E-score of -0.174.
For `TCGGGCCA`, the E-score was 0.0282.
With `CGCGAGAC` the E-score was 0.2.
With `CTCTAGAA` the E-score was -0.178.
For `ACCGAAAG`, the E-score was -0.0242.
For `CAAAGCAA`, the E-score was -0.0621.
The E-score of `ACAAACGT` is reported as -0.0755.
The E-score of `CCACTAGA` is reported as -0.159.
With `CATGCCGA` the E-score was 0.242.
For `CACTAAAA`, the E-score was 0.0814.
With `CATGATGG` the E-score was -0.27.
With `CTTATTGC` the E-score was -0.137.
With `ATGTTACG` the E-score was 0.121.
`CTCAGTAA` has an E-score of 0.0812.
For `CGCCCGGA`, the E-score was 0.168.
`TCCGTGAA` has an E-score of 0.251.

For quick reference, copied from above (set 2):
The fluorescence intensity of `TACTTAATAATCGACCACGTTTCAAATTCAATAATG` is reported as 13200 a.u.
`AAAGCGGTAATTTGTCACTAAACTTCACATATCTAT` gave a fluorescence intensity of 3250 a.u.
`CGTCCTAGTGATTTTCACGTGGCATCCATGAGGAAG` has a fluorescence intensity of 13300 a.u.
`GCACAATTTTATGACCGCGTGTTTTCGAATTTTGAC` gave a fluorescence intensity of 11100 a.u.
`CTTCTGTAAATTTGTCACTCCACTTGACGCGCCCCG` gave a fluorescence intensity of 4200 a.u.
